{"data": "Results collected from several papers", "note": "Numbered parts are unrelated; each lists some results of a single study. Changes are numbered by the printed parent chain."}
{"data": "Sample 1", "target": "CCNA1, cyclin fold, Cln2 fusion (human)", "method": "yeast growth competition, sequencing", "medium": "yeast", "setting": "weak parent motif", "reference": "not given", "direction": "higher = stronger binding", "starting sequence": "GMNC docking peptide (human); KNAKRNLSSEFAN"}
{"Change": "KNAKRNLMSEFAN [S8M]", "normalised enrichment score": 1.24}
{"Change": "KNAKHNLSSEFAN [R5H]", "normalised enrichment score": 0.354}
{"Change": "KNAARNLSSEFAN [K4A]", "normalised enrichment score": 0.0295}
{"Change": "KNAKRNLSSEYAN [F11Y]", "normalised enrichment score": 0.313}
{"Change": "KNFKRNLSSEFAN [A3F]", "normalised enrichment score": 0.473}
{"Change": "KNAKRNDSSEFAN [L7D]", "normalised enrichment score": 0.0694}
{"Change": "KNAKRNSSSEFAN [L7S]", "normalised enrichment score": -0.271}
{"Change": "KNAKRNLRSEFAN [S8R]", "normalised enrichment score": 0.215}
{"Change": "KNAKRNLISEFAN [S8I]", "normalised enrichment score": 0.838}
{"Change": "KNAKRNLSSELAN [F11L]", "normalised enrichment score": 0.283}
{"data": "Sample 2", "target": "Sal-like protein 4, full length isoform A (SALL4, Homo sapiens, UniProt Q9UJQ4, residues 1-1053)", "method": "universal PBM", "form": "double-stranded DNA, one strand shown", "medium": "in vitro", "concentration": "600 nM", "setting": "8-mer, flanks averaged, mean of replicates", "direction": "higher = stronger binding", "chain of UniProt Q9UJQ4 (whole entry, looked up)": "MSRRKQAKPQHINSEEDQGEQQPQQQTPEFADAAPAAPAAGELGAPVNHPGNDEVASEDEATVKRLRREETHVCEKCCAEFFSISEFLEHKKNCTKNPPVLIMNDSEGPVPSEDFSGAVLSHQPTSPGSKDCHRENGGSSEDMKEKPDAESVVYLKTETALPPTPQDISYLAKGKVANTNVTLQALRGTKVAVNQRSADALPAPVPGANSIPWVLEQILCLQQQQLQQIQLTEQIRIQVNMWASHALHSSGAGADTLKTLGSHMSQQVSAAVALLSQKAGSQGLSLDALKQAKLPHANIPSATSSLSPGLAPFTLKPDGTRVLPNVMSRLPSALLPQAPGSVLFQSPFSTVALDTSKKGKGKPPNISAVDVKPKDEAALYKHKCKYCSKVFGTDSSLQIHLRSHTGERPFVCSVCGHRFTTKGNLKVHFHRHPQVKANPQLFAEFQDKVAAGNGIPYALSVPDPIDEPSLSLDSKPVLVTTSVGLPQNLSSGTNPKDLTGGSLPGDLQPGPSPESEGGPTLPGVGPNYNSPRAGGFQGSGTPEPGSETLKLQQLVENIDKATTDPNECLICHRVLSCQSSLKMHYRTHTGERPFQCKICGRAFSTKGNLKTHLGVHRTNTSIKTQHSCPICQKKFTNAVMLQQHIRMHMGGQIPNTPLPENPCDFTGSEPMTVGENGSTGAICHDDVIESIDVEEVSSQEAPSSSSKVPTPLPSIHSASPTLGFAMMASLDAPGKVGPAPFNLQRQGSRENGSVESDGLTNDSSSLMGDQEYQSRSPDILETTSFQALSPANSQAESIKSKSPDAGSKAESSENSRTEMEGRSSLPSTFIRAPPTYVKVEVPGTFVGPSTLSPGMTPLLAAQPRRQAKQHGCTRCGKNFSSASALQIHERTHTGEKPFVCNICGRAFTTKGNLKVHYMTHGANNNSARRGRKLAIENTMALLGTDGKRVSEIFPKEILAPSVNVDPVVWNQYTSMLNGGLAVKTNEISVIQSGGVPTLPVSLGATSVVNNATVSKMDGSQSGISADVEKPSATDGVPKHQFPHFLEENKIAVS"}
{"Sequence": "AGCAGCGC", "E-score": -0.294}
{"Sequence": "ATTGCGGG", "E-score": -0.000655}
{"Sequence": "GAGGACCC", "E-score": -0.332}
{"Sequence": "ATAATTGC", "E-score": 0.363}
{"Sequence": "CCCTTACG", "E-score": -0.124}
{"Sequence": "GATGAGAA", "E-score": 0.106}
{"Sequence": "CCCATAGG", "E-score": -0.147}
{"Sequence": "ACACTGGG", "E-score": -0.146}
{"Sequence": "GCCGTGCC", "E-score": -0.188}
{"Sequence": "AAGGTCGA", "E-score": 0.0962}
{"Sequence": "CAGTCATG", "E-score": -0.188}
{"data": "Sample 3", "target": "Interferon regulatory factor 7, full length, phosphomimetic (IRF7, Homo sapiens, UniProt Q92985, residues 1-503, S471D/S472D/S475D/S476D/S477D/S483D/S484D/S487D)", "method": "protein-binding microarray", "form": "double-stranded DNA, one strand shown", "medium": "in vitro", "concentration": "2200 nM top", "setting": "60-bp whole probe", "together with": "salmon DNA 0.4 mg/ml", "reference": "random background probes", "direction": "higher = stronger binding", "all sequences stand within": "GCCTAGCAC … GTCTTGATTCGCTTGACGCTGCTG", "Residues (chain)": "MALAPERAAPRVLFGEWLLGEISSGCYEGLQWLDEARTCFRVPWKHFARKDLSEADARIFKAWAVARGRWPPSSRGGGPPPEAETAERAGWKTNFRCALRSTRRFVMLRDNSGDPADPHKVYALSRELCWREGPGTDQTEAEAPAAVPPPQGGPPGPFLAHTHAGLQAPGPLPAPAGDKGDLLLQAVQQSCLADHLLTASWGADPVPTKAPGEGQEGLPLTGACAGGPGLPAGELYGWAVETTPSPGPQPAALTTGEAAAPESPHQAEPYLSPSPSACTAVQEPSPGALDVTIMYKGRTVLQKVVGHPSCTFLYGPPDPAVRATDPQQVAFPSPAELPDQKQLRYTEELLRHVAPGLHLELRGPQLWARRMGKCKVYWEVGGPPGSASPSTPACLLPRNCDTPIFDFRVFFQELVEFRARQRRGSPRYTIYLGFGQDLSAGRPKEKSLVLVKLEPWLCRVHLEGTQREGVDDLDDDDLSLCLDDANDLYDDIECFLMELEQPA"}
{"Sequence": "GACGATATCAGTCTCGATACGTGCTAG", "fitted relative affinity [z-score]": 0.592}
{"Sequence": "GACGGTATCGGGTTTCGAGACGTGCTA", "fitted relative affinity [z-score]": 1.45}
{"Sequence": "CTTTGTTTTTTTCTATATGCGTGCTAG", "fitted relative affinity [z-score]": 2.63}
{"Sequence": "GATGTTTTGAGTTTTCCTTCGTGCTAG", "fitted relative affinity [z-score]": 1.93}
{"Sequence": "CCACTCTTGCTTTTTAGATCGTGCTAG", "fitted relative affinity [z-score]": 1.89}
{"Sequence": "TTAGGACTGGACACTGAGTTAGTGCTA", "fitted relative affinity [z-score]": -0.672}
{"Sequence": "AAGTGTGCCCATCTCTGCTCGTGCTAG", "fitted relative affinity [z-score]": 0.574}
{"Sequence": "GAGGGTATCGGTATCGGGACGTGCTAG", "fitted relative affinity [z-score]": 0.167}
{"data": "Other studies, line by line"}
{"Molecule": "PhoQ, residues 284 288 289 292 302 303 ALAMYF", "target": "PhoP, residues 12 14 15 18 19 QYFSL (Escherichia coli, UniProt P23836)", "assay": "Sort-seq, measured: YFP reporter", "system": "E. coli", "setting": "PhoQ-PhoP variant library, together with: 10 µM Mg2+", "scale": "reference: high Mg2+ state, higher = stronger signaling", "quantity": "fold induction", "result": 5.77}
{"note": "Repeated from above (sample 2):"}
{"Sequence": "CAGTCATG", "E-score": -0.188}
{"Sequence": "GCCGTGCC", "E-score": -0.188}
